Published values of several laboratories.
A part holds a random share of what one study measured.

Sample 1
Target: Sal-like protein 4, full length isoform A (SALL4, Homo sapiens, UniProt Q9UJQ4, residues 1-1053)
Sequence of UniProt Q9UJQ4 (whole entry, looked up): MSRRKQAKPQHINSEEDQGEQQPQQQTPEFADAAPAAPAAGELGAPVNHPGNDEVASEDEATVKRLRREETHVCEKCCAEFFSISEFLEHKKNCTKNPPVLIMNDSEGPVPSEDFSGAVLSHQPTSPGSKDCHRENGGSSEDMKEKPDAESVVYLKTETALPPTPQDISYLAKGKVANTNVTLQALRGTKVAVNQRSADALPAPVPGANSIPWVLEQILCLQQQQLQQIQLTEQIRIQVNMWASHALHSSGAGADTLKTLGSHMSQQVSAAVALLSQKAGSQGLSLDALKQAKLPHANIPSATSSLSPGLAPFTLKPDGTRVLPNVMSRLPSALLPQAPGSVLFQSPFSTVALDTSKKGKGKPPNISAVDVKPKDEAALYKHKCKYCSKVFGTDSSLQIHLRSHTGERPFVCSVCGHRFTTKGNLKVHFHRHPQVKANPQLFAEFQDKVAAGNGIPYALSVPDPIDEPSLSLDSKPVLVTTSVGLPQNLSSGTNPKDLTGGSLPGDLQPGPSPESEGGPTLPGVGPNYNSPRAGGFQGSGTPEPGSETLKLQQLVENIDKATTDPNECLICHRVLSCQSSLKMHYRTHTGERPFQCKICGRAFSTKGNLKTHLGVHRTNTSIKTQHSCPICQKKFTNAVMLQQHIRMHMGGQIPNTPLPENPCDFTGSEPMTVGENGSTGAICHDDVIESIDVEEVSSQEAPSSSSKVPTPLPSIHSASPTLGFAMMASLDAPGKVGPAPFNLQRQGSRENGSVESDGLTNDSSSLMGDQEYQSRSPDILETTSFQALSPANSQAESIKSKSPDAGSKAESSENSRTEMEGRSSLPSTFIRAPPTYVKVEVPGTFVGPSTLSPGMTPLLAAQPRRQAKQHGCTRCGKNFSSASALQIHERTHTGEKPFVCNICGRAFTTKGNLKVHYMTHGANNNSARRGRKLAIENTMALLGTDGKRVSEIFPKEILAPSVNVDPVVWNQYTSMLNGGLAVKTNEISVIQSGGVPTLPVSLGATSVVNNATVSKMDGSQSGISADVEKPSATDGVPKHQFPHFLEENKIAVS
Technique: universal PBM
Form: double-stranded DNA, one strand shown
Sample: in vitro
Tested at: 600 nM
Setting: 8-mer, flanks averaged, mean of replicates
Reading: higher = stronger binding
`AACTCCAA` has an E-score of 0.00933.
`CGACGACG` gave an E-score of -0.131.
`CATTCCTA` gave an E-score of 0.094.
The E-score of `AACGCACC` is reported as -0.183.

Sample 2
Target: Fragile X messenger ribonucleoprotein 1, C-terminal low-complexity region (Fmr1, Mus musculus, UniProt P35922)
Technique: RNA Bind-n-Seq
Form: RNA
Sample: in vitro
Tested at: 200 nM
Setting: whole 134-nt RNA, ends assumed
Added: 150 mM KCl
Baseline: input library
Reading: higher = stronger binding
The log2 enrichment of `GGGAGUUCUACAGUCCGACGAUCACCAUGCAGGUGGGCAUCUUUGGGAAGUGGGGCAAGGGGGGGAUAGGGAGGGGGGUAACACUUUGGGAACAGAAAGUCCCAGGUCGUUUCUGGAAUUCUCGGGUGUCAAGG` is reported as 0.475.
The log2 enrichment of `GGGAGUUCUACAGUCCGACGAUCGUCCUGUGCUACACAUCGUAUGUACCGAAUCGGGGCCCCCGGCCCCCGGGCCCCCGGGAAAGUAUUAUGUUACGCCGUUCGGAUCUGCACUGGAAUUCUCGGGUGUCAAGG` is reported as -0.596.
For `GGGAGUUCUACAGUCCGACGAUCCAAGUCCUGUGCUACACAUCGUAUGUACCGAAUCGGGAAAGGGAAAGGGUUUGGGAAAGUAUUAUGUUACGCCGUUCGGAUCUGCACUUCUGGAAUUCUCGGGUGUCAAGG`, the log2 enrichment was 0.631.

Sample 3
Target: Histone acetyltransferase KAT6A, winged helix 2, GST fusion (KAT6A, Homo sapiens, UniProt Q92794, residues 85-181)
Technique: protein binding microarray
Form: double-stranded DNA, one strand shown
Sample: in vitro
Tested at: not given
Setting: 8-mer, flanks averaged, mean of 2 arrays, mostly near background
Baseline: not given
Reading: higher = stronger binding
Construct (chain): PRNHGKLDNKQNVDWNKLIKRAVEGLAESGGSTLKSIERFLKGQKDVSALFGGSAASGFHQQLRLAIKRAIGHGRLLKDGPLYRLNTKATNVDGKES
The E-score of `CTTCCTGC` is reported as -0.0722.
`CGGGTCTA` gave an E-score of -0.0412.
For `CTTAGAAG`, the E-score was -0.137.
With `ACAAGCCT` the E-score was -0.107.

Single results of other studies
With `PhoQ, residues 284 288 289 292 302 303 SACGEM` the fold induction was 4.78 (PhoP, residues 12 14 15 18 19 GQAIL (Escherichia coli, UniProt P23836); Sort-seq, refers to: YFP reporter; E. coli; PhoQ-PhoP variant library, added: 10 µM Mg2+; baseline: high Mg2+ state, higher = stronger signaling).

For quick reference, copied from above (sample 2):
The log2 enrichment of `GGGAGUUCUACAGUCCGACGAUCACCAUGCAGGUGGGCAUCUUUGGGAAGUGGGGCAAGGGGGGGAUAGGGAGGGGGGUAACACUUUGGGAACAGAAAGUCCCAGGUCGUUUCUGGAAUUCUCGGGUGUCAAGG` is reported as 0.475.
The log2 enrichment of `GGGAGUUCUACAGUCCGACGAUCGUCCUGUGCUACACAUCGUAUGUACCGAAUCGGGGCCCCCGGCCCCCGGGCCCCCGGGAAAGUAUUAUGUUACGCCGUUCGGAUCUGCACUGGAAUUCUCGGGUGUCAAGG` is reported as -0.596.
